Results of several laboratories.
Protocols differ between the studies behind these lines. Several values in a cell are separate wells, animals, samples, runs or records.
TDP1: Tyrosyl-DNA phosphodiesterase 1 (TDP1, Homo sapiens, UniProt Q9NUW8)
Sequence of UniProt Q9NUW8 (whole entry, looked up): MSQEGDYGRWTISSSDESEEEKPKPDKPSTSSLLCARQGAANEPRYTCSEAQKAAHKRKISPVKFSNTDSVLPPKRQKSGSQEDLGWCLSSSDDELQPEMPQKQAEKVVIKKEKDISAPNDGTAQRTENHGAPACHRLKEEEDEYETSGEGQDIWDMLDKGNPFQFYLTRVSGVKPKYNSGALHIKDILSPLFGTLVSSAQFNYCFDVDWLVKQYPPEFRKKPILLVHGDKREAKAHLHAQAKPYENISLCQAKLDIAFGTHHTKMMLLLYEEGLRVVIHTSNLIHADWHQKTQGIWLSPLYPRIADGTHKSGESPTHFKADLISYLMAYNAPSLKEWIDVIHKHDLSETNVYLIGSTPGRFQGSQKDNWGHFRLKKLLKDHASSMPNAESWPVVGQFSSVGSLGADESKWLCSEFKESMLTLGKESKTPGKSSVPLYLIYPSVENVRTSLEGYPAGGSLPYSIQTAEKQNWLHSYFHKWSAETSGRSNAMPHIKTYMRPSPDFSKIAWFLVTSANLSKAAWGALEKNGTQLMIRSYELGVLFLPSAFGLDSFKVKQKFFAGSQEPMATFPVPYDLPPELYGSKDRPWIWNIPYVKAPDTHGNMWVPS
Sequence of UniProt P33261 (whole entry, looked up): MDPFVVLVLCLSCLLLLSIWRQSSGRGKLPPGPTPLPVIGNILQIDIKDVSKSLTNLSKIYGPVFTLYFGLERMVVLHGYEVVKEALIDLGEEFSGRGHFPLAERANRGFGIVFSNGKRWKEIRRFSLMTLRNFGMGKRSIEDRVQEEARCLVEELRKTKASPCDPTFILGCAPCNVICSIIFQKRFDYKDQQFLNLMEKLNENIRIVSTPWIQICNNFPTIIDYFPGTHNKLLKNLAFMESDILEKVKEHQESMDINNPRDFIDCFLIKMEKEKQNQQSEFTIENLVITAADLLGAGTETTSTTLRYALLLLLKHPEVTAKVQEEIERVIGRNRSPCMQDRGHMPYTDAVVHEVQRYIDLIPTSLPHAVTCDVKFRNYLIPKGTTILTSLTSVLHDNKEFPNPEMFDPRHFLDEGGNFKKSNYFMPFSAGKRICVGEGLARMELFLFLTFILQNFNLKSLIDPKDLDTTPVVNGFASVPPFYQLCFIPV

| Structure (SMILES) | tested on | assay | test system | setting | scale | quantity | result |
| --- | --- | --- | --- | --- | --- | --- | --- |
| Nc1nc2cc(C(=O)c3ccc(F)cc3)ccc2[nH]1 | Escherichia coli | Ames preincubation test | WP2 uvrA | 312.5 µg/plate, 3 days, without S9 | – | revertants per plate | 26.3 revertants/plate |
| O=c1c(O)ccccc1O | HepDES19 | cell growth or viability, MTS | – | 72 h | – | CC50 | 95 µM |
| COC(=O)c1c(C)oc2cc(Br)c(O)c(C=NOCc3ccc4nc(-c5ccccc5)c(Nc5ccc(C(=O)O)cc5)n4c3)c12 (mixture of isomers) | TDP1 | enzyme activity, inhibitor | – | 100 µM, unpurified compound | – | inhibition | 3.2% |
| O=C(Oc1cccccc1=O)c1ccc(Cl)cc1 | HepDES19 | cell growth or viability, MTS | – | 72 h | – | CC50 | 99.5 µM |
| CCN(CC)CC#CCNc1ccnc2cc(Cl)ccc12 | Salmonella typhimurium | mini-Ames test | TA102 | 250.0 µg/well, with rat liver S9 | – | revertants | 80 revertants/well and 83 revertants/well |
| N=C(N)NCCC[C@@H]1NC(=O)[C@@H](CCCNC(=N)N)NC(=O)[C@H](CCCNC(=N)N)NC(=O)[C@@H](C(c2ccccc2)c2ccccc2)NC(=O)[C@H](Cc2c[nH]c3ccccc23)NC(=O)[C@@H](C(c2ccccc2)c2ccccc2)NC(=O)[C@@H](CCCNC(=N)N)NC1=O | human red blood cells | haemolysis | – | 2 h, 37 °C | – | HC50 | 240 µg/mL |
| CC(C)OCCOCc1ccc(OCC(O)CN(N=O)C(C)C)cc1 (stereo not shown) | Salmonella typhimurium | Ames test | TA1535 | 50 µg/plate, 30 % rat S9 | baseline: solvent control | revertant fold increase | 0.9 fold |
| COc1cccc(OC)c1-c1cc(C(=O)NC2(C(=O)O)C3CC4CC(C3)CC2C4)nn1-c1ccc(C(=O)NCCNC(=O)[C@H](CCCCNC(=O)[C@H](CC(C)C)NC(=O)C2OC2C(=O)O)NC(=O)CN2CCN(CC(=O)[O-])CCN(CC(=O)[O-])CCN(CC(=O)[O-])CC2)cc1C(C)C.[177Lu+3] (mixture of isomers) | HT-29 tumour model | – | host not given, blood | 72 h, tumour-bearing | – | tracer uptake | 0.034 %ID/g |
| N#C[C@@H]1CC(F)(F)CN1C(=O)CNC(=O)c1ccnc2c(NC(=O)CCOCCOCCOCCOCCOCCOCCNC(=O)[C@H](CCCCNC(=O)CN3CCN(CC(=O)[O-])CCN(CC(=O)[O-])CCN(CC(=O)[O-])CC3)NC(=O)CCCc3ccc(I)cc3)cccc12.[177Lu+3] | U-87 MG tumour model | – | host not given, tumour | 48 h, tumour-bearing | – | tracer uptake | 1.58 %ID/g |
| C=C(NC(=O)c1csc(-c2nc3c(cc2O)-c2nc(cs2)C(=O)NC(C(C)O)C(=O)NC(=C(C)OC)c2nc(cs2)C(=O)NC2c4nc(cs4)C(=O)NC(COC(=O)c4c5c6c(cccc6n4O)COC(=O)C(OC4CC(C)(O)C(N(C)C)C(C)O4)C2OC5)c2nc-3cs2)n1)C(N)=O (stereo not shown) | – | – | Sprague-Dawley rat, both sexes, plasma | intravenous infusion, 2 mg/kg single dose | – | MRT(0-last) | 40.8 min |
| O=c1ccccc(Br)c1O | HepDES19 | cell growth or viability, MTS | – | 72 h | – | CC50 | 95.6 µM |
| CN1CCOc2cc(C=NOCc3ccc(-c4nc5cc(-c6ccccc6)ccn5c4Nc4ccc(C(=O)O)cc4)cc3)cnc21 | TDP1 | enzyme activity, inhibitor | – | 100 µM, unpurified compound | – | inhibition | 94.2% |
| COC1CN([C@H]2CC[C@H]([C@@]3(C)Oc4c(Cl)cc(C(=O)NCc5c(SC)cc(C)[nH]c5=O)c(C)c4O3)CC2)C1 | – | RNA-seq, refers to: TGM3 | human, whole blood | dose not given, 24 h | baseline: pretreatment baseline | log2 fold change | 3.7 |
| CNC(=O)C1CCCN(C(=O)C2CC3CCC2N3C(=O)[C@@H]2C[C@@H](O)CN2C(=O)NCc2cccc(Cl)c2F)C1 (mixture of isomers) | CYP2C19 (Homo sapiens, UniProt P33261) | enzyme activity, inhibitor, time-dependent inhibition | – | 5.56 µM, preincubated without NADPH | baseline: negative control | remaining activity | 87.9% |
| COC(=O)c1c(C)cc(O)c(=O)c(O)c1C(=O)OC | HepDES19 | cell growth or viability, MTS | – | 72 h | – | CC50 | 38 µM |
| O=C1C2CC3CC1CC(C(=O)N1CCN(c4ccc([N+](=O)[O-])c5ncccc45)CC1)(C3)C2 | Salmonella typhimurium | Ames test | TA100 | 0.05 µg/well, with S9 | – | mean revertant colonies | 26 colonies/well |

For quick reference, copied from above:
| Structure (SMILES) | tested on | assay | test system | setting | scale | quantity | result |
| --- | --- | --- | --- | --- | --- | --- | --- |
| COC1CN([C@H]2CC[C@H]([C@@]3(C)Oc4c(Cl)cc(C(=O)NCc5c(SC)cc(C)[nH]c5=O)c(C)c4O3)CC2)C1 | – | RNA-seq, refers to: TGM3 | human, whole blood | dose not given, 24 h | baseline: pretreatment baseline | log2 fold change | 3.7 |
| CNC(=O)C1CCCN(C(=O)C2CC3CCC2N3C(=O)[C@@H]2C[C@@H](O)CN2C(=O)NCc2cccc(Cl)c2F)C1 (mixture of isomers) | CYP2C19 (Homo sapiens, UniProt P33261) | enzyme activity, inhibitor, time-dependent inhibition | – | 5.56 µM, preincubated without NADPH | baseline: negative control | remaining activity | 87.9% |
